Published values of several laboratories.
Parts stem from different laboratories: compare values within a part only. Values joined by “and” are separate records of one study, mostly repeats; a detail may differ.
Sequence of UniProt P36896 (whole entry, looked up): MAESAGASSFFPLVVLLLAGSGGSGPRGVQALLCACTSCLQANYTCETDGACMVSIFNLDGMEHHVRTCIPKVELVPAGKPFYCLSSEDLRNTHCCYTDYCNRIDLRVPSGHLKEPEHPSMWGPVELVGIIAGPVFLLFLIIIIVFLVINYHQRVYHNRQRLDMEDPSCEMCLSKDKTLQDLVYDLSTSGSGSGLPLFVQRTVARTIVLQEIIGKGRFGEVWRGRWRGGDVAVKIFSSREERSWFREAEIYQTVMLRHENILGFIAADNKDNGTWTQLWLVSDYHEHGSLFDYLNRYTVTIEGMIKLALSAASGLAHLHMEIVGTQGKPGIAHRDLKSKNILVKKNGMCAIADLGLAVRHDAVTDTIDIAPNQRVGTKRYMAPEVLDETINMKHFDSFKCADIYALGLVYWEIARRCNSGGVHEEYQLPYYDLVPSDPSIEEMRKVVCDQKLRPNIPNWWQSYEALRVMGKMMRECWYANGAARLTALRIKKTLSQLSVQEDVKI
Sequence of UniProt P07949 (whole entry, looked up): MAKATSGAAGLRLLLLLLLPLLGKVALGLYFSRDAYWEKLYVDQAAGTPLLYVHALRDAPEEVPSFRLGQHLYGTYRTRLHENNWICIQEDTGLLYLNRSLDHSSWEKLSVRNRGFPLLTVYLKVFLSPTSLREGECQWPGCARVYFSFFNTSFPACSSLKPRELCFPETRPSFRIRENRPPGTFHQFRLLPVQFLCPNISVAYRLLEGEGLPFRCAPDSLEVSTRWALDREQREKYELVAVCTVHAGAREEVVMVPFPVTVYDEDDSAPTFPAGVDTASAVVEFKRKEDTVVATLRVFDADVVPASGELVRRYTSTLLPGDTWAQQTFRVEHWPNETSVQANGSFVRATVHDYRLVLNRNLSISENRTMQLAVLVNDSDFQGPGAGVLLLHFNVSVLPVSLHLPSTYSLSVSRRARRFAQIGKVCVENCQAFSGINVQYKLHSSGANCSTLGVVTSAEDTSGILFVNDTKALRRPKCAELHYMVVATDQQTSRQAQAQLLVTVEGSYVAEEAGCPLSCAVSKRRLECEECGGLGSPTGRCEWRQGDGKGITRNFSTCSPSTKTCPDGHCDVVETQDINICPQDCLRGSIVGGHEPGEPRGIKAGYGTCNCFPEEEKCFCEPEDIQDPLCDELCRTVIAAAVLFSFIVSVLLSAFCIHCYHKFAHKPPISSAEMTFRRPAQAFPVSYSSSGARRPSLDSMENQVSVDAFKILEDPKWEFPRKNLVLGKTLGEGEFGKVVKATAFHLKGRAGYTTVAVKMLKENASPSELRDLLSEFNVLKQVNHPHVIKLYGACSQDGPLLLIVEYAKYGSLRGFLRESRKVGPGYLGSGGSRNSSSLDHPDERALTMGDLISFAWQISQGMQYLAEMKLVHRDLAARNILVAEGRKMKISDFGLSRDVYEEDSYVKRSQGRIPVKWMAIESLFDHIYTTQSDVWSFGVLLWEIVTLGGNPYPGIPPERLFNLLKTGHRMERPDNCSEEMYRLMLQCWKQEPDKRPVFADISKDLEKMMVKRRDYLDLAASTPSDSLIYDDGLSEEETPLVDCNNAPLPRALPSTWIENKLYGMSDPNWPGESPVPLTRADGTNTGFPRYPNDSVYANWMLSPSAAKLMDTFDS
Sequence of UniProt P15056 (whole entry, looked up): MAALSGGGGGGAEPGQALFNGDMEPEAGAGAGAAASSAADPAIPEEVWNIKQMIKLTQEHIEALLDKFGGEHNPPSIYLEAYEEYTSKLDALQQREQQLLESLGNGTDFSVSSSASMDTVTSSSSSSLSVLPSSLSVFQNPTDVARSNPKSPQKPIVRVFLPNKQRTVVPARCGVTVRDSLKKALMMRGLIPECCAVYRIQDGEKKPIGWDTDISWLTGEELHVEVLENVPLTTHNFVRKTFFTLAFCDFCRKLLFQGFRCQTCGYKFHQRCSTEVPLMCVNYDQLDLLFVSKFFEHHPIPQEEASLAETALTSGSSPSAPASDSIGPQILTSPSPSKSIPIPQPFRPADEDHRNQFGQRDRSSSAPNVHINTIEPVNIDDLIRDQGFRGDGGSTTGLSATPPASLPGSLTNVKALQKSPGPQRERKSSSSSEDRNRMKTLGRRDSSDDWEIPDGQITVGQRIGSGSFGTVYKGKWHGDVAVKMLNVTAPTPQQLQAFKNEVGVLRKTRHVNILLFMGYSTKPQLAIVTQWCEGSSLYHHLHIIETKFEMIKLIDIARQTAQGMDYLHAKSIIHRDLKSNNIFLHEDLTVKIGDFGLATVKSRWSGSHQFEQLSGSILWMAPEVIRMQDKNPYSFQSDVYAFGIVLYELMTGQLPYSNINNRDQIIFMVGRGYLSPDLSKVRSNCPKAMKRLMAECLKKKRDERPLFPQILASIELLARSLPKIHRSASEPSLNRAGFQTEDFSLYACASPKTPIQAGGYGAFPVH
Sequence of UniProt O75116 (whole entry, looked up): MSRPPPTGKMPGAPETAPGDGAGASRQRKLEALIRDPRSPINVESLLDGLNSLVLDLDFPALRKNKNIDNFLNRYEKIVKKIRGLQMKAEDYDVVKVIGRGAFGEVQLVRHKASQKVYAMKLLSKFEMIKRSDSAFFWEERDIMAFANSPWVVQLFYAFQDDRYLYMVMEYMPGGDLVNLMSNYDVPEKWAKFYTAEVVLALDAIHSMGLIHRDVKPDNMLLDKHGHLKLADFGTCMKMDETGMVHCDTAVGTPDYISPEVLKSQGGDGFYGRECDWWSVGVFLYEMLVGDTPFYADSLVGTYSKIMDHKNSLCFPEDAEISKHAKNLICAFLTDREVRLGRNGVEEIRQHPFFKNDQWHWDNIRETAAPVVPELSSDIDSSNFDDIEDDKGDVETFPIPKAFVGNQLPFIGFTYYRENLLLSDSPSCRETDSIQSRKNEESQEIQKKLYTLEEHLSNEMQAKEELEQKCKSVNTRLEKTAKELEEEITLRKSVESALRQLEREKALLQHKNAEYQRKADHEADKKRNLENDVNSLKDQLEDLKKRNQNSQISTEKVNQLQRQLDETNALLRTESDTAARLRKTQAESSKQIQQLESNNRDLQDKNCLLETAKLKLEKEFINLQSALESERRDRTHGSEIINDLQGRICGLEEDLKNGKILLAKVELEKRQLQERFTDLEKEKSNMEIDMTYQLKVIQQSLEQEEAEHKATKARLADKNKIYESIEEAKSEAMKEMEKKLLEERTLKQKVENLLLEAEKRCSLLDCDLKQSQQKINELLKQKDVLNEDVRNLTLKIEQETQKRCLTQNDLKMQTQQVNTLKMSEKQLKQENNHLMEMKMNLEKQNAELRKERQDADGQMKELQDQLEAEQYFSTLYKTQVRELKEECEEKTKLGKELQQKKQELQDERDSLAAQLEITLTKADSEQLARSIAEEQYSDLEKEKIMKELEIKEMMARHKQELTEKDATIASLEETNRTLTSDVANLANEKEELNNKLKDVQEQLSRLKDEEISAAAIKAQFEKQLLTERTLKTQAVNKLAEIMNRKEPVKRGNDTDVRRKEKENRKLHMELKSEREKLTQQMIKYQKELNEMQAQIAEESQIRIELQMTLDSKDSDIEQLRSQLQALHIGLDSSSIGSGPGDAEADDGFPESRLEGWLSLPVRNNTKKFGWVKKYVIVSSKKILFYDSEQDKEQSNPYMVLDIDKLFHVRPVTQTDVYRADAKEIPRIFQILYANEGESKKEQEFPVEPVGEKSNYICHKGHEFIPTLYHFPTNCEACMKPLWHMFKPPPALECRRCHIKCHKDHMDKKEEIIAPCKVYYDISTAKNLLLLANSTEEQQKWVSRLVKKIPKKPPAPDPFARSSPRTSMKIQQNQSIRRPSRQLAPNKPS
Sequence of UniProt Q13153 (whole entry, looked up): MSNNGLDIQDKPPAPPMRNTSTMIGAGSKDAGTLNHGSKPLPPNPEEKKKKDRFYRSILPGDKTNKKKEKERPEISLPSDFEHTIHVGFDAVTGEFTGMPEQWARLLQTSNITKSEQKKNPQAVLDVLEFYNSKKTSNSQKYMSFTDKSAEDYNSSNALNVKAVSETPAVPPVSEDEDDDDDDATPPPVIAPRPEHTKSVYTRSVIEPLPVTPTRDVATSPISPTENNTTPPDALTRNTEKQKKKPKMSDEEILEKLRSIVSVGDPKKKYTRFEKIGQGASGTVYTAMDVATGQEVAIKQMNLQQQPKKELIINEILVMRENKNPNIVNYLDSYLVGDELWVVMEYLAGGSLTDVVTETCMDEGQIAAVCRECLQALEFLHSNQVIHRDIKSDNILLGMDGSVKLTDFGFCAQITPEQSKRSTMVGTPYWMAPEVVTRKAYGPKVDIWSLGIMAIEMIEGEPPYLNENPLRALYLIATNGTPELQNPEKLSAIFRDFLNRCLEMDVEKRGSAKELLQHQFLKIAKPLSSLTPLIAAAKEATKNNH
Sequence of UniProt O95747 (whole entry, looked up): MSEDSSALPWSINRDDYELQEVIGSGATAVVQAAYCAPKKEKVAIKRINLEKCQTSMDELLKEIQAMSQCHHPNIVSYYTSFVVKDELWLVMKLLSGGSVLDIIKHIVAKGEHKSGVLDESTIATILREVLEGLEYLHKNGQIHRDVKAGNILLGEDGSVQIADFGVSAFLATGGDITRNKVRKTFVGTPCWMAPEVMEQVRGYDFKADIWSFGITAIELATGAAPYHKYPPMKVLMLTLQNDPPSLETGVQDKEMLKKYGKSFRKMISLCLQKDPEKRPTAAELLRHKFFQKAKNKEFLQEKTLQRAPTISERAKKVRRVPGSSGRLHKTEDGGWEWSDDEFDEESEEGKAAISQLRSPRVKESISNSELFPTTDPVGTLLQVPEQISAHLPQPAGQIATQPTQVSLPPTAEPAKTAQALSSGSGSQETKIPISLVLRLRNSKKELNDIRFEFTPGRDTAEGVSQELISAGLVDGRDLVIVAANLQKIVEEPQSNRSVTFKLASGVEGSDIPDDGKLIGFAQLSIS

Set 1
Structure (SMILES): Cc1ccc2c(c1)OC(O)(C(=O)O)C(=O)N2Cc1ccccc1 (stereo not drawn)
| organism | assay | system | setting | scale | inhibition |
| --- | --- | --- | --- | --- | --- |
| Arabidopsis thaliana | root length | Col-0, seedlings | 50 µg/mL | reference: water control | 29.4% |
| Arabidopsis thaliana | hypocotyl length | Col-0 | 12.5 µg/mL, 7 days, seed germination, dark | – | 2.9% |
| Arabidopsis thaliana | root length | Col-0, seedlings | 25 µg/mL | – | 16.8% |
| Glycine max | fresh weight | – | soil surface spray, 150 g ai/ha, 21 days, pre-emergence crop safety | – | 19.4% and 21.3% and 19.9% |
| Amaranthus retroflexus | fresh weight | – | 150 g ai/ha, post-emergence treatment | – | 52.1% and 50.9% and 51.7% |
| Arabidopsis thaliana | hypocotyl length | Col-0 | 25.0 µg/mL, 7 days, seed germination, dark | – | 12.9% |
| Arabidopsis thaliana | hypocotyl length | Col-0, seedlings | 100 µg/mL | – | 47.9% |
| Arabidopsis thaliana | root length | Col-0, seedlings | 25 µg/mL | reference: water control | 16.8% |
| Arabidopsis thaliana | root length | Col-0, seedlings | 50 µg/mL | – | 29.4% |
| Arabidopsis thaliana | root length | Col-0, seedlings | 3.125 µg/mL | – | 10.2% |
| Arabidopsis thaliana | hypocotyl length | Col-0 | 100 µg/mL, 7 days, seed germination, dark | – | 47.9% |
| Arabidopsis thaliana | root length | Col-0, seedlings | 6.25 µg/mL | reference: water control | 12.4% |
| Arabidopsis thaliana | hypocotyl length | Col-0, seedlings | 12.5 µg/mL | – | 2.87% |

Set 2 — cell line: U-87 MG; tested at: concentration not given; reference: DMSO
Structure (SMILES): CCN1/C(=C/C=C2\CCCC(/C=C/C3=[N+](CC)c4ccccc4C3(C)C)=C2NCCCCCCCCN2CCC(Nc3nc4ccccc4n3Cc3ccc(F)cc3)CC2)C(C)(C)c2ccccc21
| assay | log2 fold change |
| --- | --- |
| refers to: ASNS mRNA | 1.76 |
| refers to: ZDHHC12 mRNA | -1.09 |
| refers to: SHTN1 mRNA | -0.806 |
| refers to: SYNPO mRNA | -1.56 |
| refers to: NR2F2 mRNA | -1.93 |
| refers to: SLC9A7 mRNA | -1.22 |
| refers to: UBE2B mRNA | 0.875 |
| refers to: MMP3 mRNA | 1.24 |
| refers to: NAMPT mRNA | 1.78 |
| refers to: ALDH7A1 mRNA | -1.17 |
| refers to: ZKSCAN3 mRNA | -0.929 |

Set 3 — tested at: 1 µM
Structure (SMILES): CC[C@@]1(c2cccc(-c3c(F)cncc3OC)c2)C2=C(Nc3n[nH]cc31)[C@H](F)C(C)(C)CC2=O (single isomer, unassigned)
| target | assay | scale | remaining binding |
| --- | --- | --- | --- |
| RET (Homo sapiens, UniProt P07949) | binding, competition with immobilised ligand | – | 100% |
| ROCK2 (Homo sapiens, UniProt O75116) | binding, competition with immobilised ligand | – | 57% |
| PAK1 (Homo sapiens, UniProt Q13153) | kinase binding, KINOMEscan | reference: DMSO control | 95% |
| BRAF (Homo sapiens, UniProt P15056) | kinase binding, KINOMEscan | reference: DMSO control | 83% |
| FLT3 (Homo sapiens, UniProt P36888, K663Q) | binding, competition with immobilised ligand | – | 94% |
| FGFR2 (Homo sapiens, UniProt P21802) | binding, competition with immobilised ligand | – | 100% |
| CDK3 (Homo sapiens, UniProt Q00526) | binding, competition with immobilised ligand | – | 2.6% |
| OXSR1 (Homo sapiens, UniProt O95747) | binding, competition with immobilised ligand | – | 80% |
| Tyrosine-protein kinase ABL1, phosphorylated (ABL1, Homo sapiens, UniProt P00519, Q252H) | kinase binding, KINOMEscan | reference: DMSO control | 96% |
| EGFR (Homo sapiens, UniProt P00533, G719C) | binding, competition with immobilised ligand | – | 100% |
| ACVR1B (Homo sapiens, UniProt P36896) | kinase binding, KINOMEscan | reference: DMSO control | 89% |
| STK39 (Homo sapiens, UniProt Q9UEW8) | binding, competition with immobilised ligand | – | 79% |

Set 4
SMILES: COc1cc(C(=O)OCCCN2CCCN(CCCOC(=O)c3cc(OC)c(OC)c(OCc4ccc([N+](=O)[O-])cc4)c3)CC2)cc(OC)c1OC
| assay | system | setting | paw withdrawal threshold |
| --- | --- | --- | --- |
| von Frey test | mouse, CFA inflammatory pain | intravenous, dose not given, 1 h post-dose, first injection, day 1 | 0.51 g and 0.75 g and 0.44 g and 0.4 g and 0.32 g and 0.59 g |
| mechanical pain, von Frey test | mouse, STZ diabetic neuropathy | intravenous, 30 mg/kg, 24 h post-dose, first injection, day 8 | 0.32 g and 0.08 g and 0.29 g and 0.17 g and 0.03 g |
| mechanical pain, von Frey test | mouse, STZ diabetic neuropathy | intravenous, 30 mg/kg, 5 h post-dose, third injection | 0.32 g and 0.44 g and 0.51 g |
| – | mice, STZ diabetic neuropathy | intrathecal, 10 nmol, 5 h, with: DPCPX 10 nmol, 30 min before | 0.15 g and 0.12 g and 0.29 g and 0.14 g and 0.03 g |
| von Frey test | mouse, CFA inflammatory pain | intravenous, dose not given, 5 h post-dose, first injection, day 1 | 0.23 g and 0.44 g and 0.32 g and 0.36 g and 0.51 g |
| – | mice, STZ diabetic neuropathy | intrathecal, 10 nmol, 24 h, with: DPCPX 10 nmol, 30 min before | 0.09 g and 0.13 g and 0.05 g and 0.06 g and 0.23 g and 0.02 g |

Some of these lines once more (set 3):
| target | assay | scale | remaining binding |
| --- | --- | --- | --- |
| PAK1 (Homo sapiens, UniProt Q13153) | kinase binding, KINOMEscan | reference: DMSO control | 95% |
| BRAF (Homo sapiens, UniProt P15056) | kinase binding, KINOMEscan | reference: DMSO control | 83% |
| FLT3 (Homo sapiens, UniProt P36888, K663Q) | binding, competition with immobilised ligand | – | 94% |
| FGFR2 (Homo sapiens, UniProt P21802) | binding, competition with immobilised ligand | – | 100% |
| CDK3 (Homo sapiens, UniProt Q00526) | binding, competition with immobilised ligand | – | 2.6% |
| OXSR1 (Homo sapiens, UniProt O95747) | binding, competition with immobilised ligand | – | 80% |
| Tyrosine-protein kinase ABL1, phosphorylated (ABL1, Homo sapiens, UniProt P00519, Q252H) | kinase binding, KINOMEscan | reference: DMSO control | 96% |
